Assay results gathered from unrelated publications.
Every numbered part comes from another study and shows a few of its results, in no order. Changes are numbered by the printed parent chain.

Set 1 — technique: RNA Bind-n-Seq; form: RNA; medium: in vitro; concentration: 200 nM; notes: whole 134-nt RNA, ends assumed; together with: 150 mM LiCl; reference: input library; direction: higher = stronger binding; measurement: log2 enrichment; library: 7-deaza-guanosine replaces G
Target: Fragile X messenger ribonucleoprotein 1, C-terminal low-complexity region (Fmr1, Mus musculus, UniProt P35922)
Shared flanks, not repeated: GGGAGUUCUACAGUCCGACGAUC … UGGAAUUCUCGGGUGUCAAGG
CAAGUCCUGUGCUACACAUCGUAUGUACCGAAUCGGUUUUUUUGGUUUUUGGUGGAAAGUAUUAUGUUACGCCGUUCGGAUCUGCACUUC: -1.56
CAAGUCCUGUGCUACACAUCGUAUGUACCGAAUCGGUUUUUGGAAAGGAAAAAGGAAAGUAUUAUGUUACGCCGUUCGGAUCUGCACUUC: -1.23
CCUGUGCUACACAUCGUAUGUACCGAAUCGGGAAAAAAAGGGAAAAAAAGGGAAAAAAAGGAAAGUAUUAUGUUACGCCGUUCGGAUCUG: -0.0769
ACCAUGCAGGUGGGCAUCUUUGGGAAGUGGGGCAAGGGGGGGAUAGGGAGGGGGGUAACACUUUGGGAACAGGUGGUCCCAGGUCAAAUC: 1.19
CACAGACAACACGCACCCACACAGACACAGAGGGAAGGGGUUGGGAUGGGGACAGGGUGCACAGCAGGGCGGGGUCGGACCCCAGCCCCU: 0.761
CACAGACAACACGCACCCACACAGACACAGAGGGAAGGCGUUGGGAUGGGGACAGGGUGCACAGCAGGGCGGGGUAGGACCCCAGCCCCU: -1.33
AAGUCCUGUGCUACACAUCGUAUGUACCGAAUCGGGGCCCGGGGCCCGGGCCCGGGGAAAGUAUUAUGUUACGCCGUUCGGAUCUGCACU: -2.28
CUUAUGCCUUCCCCACUGGUAUUGAGGGUUUUGAUAAUAAAUUGGUAGGAAAAAAAAGUACCUCCUAGAAGGAAGCCUUCCCCACCAUUU: 1.39
CACAGACAACACGCACCCACACAGACACAGAGGGAAGGGGUUGGGAUGAAAACAGGGUGCACAGCAGGGCGGGGUAGGACCCCAGCCCCU: 0.174
UUCCUCAAGUCCUGUGCUACACAUCGUAUGUACCGAAUCGGUGGUGGAGGAAAGUAUUAUGUUACGCCGUUCGGAUCUGCACUUCCAGCA: -0.894
UAACUUUAGAGGAGGAUCCGAUGGAUAUGGCAGUGGACGUGGAUUUGGGGAUGGCUAUAAUGGGUAUGGAGGAGGACCUGGAGGUGGCAA: 0.435

Set 2 — technique: RNA Bind-n-Seq; form: RNA; medium: in vitro; concentration: 365 nM; reference: no-protein control; direction: higher = stronger binding; measurement: RBNS enrichment (R)
Target: RNA binding protein fox-1 homolog 2, RRM domain, GST-SBP tag (RBFOX2, Homo sapiens, UniProt O43251-10, residues 100-194)
Notes: natural RNA segment, single round, ends assumed
Shared flanks, not repeated: GGGAGUUCUACAGUCCGACGAUC … UGGAAUUCUCGGGUGCCAA
Residues (chain): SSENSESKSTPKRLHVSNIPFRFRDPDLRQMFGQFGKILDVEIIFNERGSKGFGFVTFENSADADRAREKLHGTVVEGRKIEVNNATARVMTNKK
GAAGCACAGGCCCGUCACCCCAGGAGGAAAAGCCCAGGGUCUGGGGCAGCAGAGCCAUCGCAUCAUGUUUCCCAGGGCAACUUGAGGUCUGACUUUUGGCUCCCUCGCCC: 0.409
UGUUGGGGUUCCAGUGGAGCUGAGAAAGUGAACAAUCCAGCUACUUAAAGCAACAACAAAACCUGUUCAUCUGGAUCCCUAGGUAAUUUUGACCAAGGUGAGACUUUUGG: 0.292
AGGGGAGCUGCUGCUGCCUGCUCAUUCUAGCUUCCGAUUCCAUUCCCAGCCCCUGCGUUAAGGUCCCUGGAGAGGUGGCGUCAGUGGGGGUGAGGAAGGGCAUCUUCCUG: 0.613
GCUGUGCCUUCUCAGCAGCACUUUUGCUGUACAUACAAUGGAAAUAAAGACCUCAGCUAGAAACCUGCAAUUGACUCAGCUUUGUUUUGGUUUUUUAUUUGUGCAUACCC: 0.729
AACGUGACCUAGAAACCAAGAGAUACUGCUUCAUGUGUGGUCUUUAUUGGGCCACAGGAGGGUCAAUCUUGUGGGUCUGUGCUGUAAUCUGCCUUACUUGCACCCACCAG: 0.35
UAAGGAGGACAACUAUGAGGUAAAGCCAUCCCCAGACUGACAGCUCUGCCUUUAUCUUGCCUCUGGCCUUAUAUUUCAUACUUUGUUCAAUAUGGCUGGAUAAUAAACAC: 0.267
UGAUGGGCAGGCAUUUCCCUGGAAAGGGGGUGAACUACCUACCUCUCCUCAAGACAGCCGAAGGGUGGGAUUGGUGCCGCUCUGGGAAGCGUGGCCCCAGGAGUUUUGUC: 0.328
AAGACAACUUUACAUUUAAUGCUUCACUUAAUGAGACAUUCUUUUUUUUAUAAGUCUAUUUUUCUACUCAGUUUCAGAACACUAAUCUGAUUUUCACUCUGAUUUUUAAC: 0.604
ACACCAUCCAGUAUUCAAAGCAUCCCCCGCCGUUGUGCCACUUUUGCCCACCUCUUCUGCGUGCCCCUCUUCUGUCUCAUAGUUGUGUUAAGCUUGCGUAGAAUUGCAGG: 1.24
UCUGUGGGAUUUUUAGACAUUUUUCGACAUCAGGGUAUUUGUUCCACCUUGGCCAGGCCUCCUCGGAGAAGCUUGUCCCCCGUGUGGGAGGGACGGAGCCGGACUGGACA: 0.383
UGUUUUGUACUUUUUAUACUGUUGGAUACUUAUAAUCAAAACUUUACUCUAGGGUAUUGAAUAAAUUUAGUCUUAUUAGAAAAAUAAAAGUUGUCUCAUGACUUUGUUUU: 0.589
CAGUCUUAGCUGACUUUUUUUUACUCUGAACUCUUAUUUGAAUUGUUUUUUGUGCAUAUAUUUCUGCUACCACAGAGAUUGUACUAUACAAAUAAAAAAAUAAAAACCCA: 0.779

Set 3 — target: CCND3, cyclin fold, Cln2 fusion (human); technique: yeast growth competition, sequencing; medium: yeast; notes: weak parent motif; reference: not given; direction: higher = stronger binding; measurement: normalised enrichment score
Starting sequence: CENPC docking peptide (human); VKTKKRLNFDDKV; partner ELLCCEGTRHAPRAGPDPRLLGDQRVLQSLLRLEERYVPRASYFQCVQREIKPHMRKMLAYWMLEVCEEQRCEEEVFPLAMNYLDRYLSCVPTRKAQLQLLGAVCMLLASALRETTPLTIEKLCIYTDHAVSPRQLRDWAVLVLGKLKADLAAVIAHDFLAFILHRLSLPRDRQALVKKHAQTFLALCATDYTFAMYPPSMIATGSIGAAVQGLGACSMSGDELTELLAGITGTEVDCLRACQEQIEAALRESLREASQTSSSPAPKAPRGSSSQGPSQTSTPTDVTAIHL
F9L: 0.432
K4A: 0.0428
K5A: 0.143
D11A: 0.158
K5R F9L: 0.179
F9A: 0.108
K5A L7A: 0.126
D10A: 0.0475
T3A: 0.134
K12A: 0.162

Set 4 — technique: protein-binding microarray; form: double-stranded DNA, one strand shown; medium: in vitro; concentration: 2540 nM top; notes: 60-bp whole probe; together with: salmon DNA 0.4 mg/ml; reference: random background probes; direction: higher = stronger binding; measurement: fitted relative affinity; shared flanks, not repeated: GCCTAGCAC … GTCTTGATTCGCTTGACGCTGCTG
Target: Interferon regulatory factor 3, full length, phosphomimetic (IRF3, Homo sapiens, UniProt Q14653, residues 1-427, S386D/S396D/S398D/S402D/T404D/S405D)
Residues (chain): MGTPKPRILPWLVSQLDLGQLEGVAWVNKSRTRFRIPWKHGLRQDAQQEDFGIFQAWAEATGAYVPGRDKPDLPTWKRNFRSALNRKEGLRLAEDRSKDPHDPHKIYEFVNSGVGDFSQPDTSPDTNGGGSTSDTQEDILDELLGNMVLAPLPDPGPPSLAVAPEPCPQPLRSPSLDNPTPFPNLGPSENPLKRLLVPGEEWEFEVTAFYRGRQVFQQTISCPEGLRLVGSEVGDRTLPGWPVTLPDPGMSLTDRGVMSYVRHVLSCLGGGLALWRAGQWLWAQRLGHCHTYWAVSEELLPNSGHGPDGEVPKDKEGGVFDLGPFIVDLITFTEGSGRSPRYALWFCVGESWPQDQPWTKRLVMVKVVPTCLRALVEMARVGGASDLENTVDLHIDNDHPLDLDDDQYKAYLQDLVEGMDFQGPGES
GGCGGACTGCTTATCCTGACGTGCTAG: -0.484 z-score
TTAGGTCCCCTACTGCTTTAGTGCTAG: 0.485 z-score
GACGGTATCGACACCGGGGACGTGCTA: 0.525 z-score
TTAGGTTTCGGGTTTCGGCTAGTGCTA: 5.32 z-score
GTAGTAATCTTAAGGCTGTCGTGCTAG: -0.0842 z-score
GACGGTCCCCTTCTCCTGACGTGCTAG: 2.98 z-score
TCATTTCTCTTTCACTAACTGTGCTAG: 3.78 z-score
TTAGATATCAGACTAGATTAGTGCTAG: 0.5 z-score
GACGGTATCGGGTACCGGGACGTGCTA: 1.3 z-score
GACGGTCTCGGACTGAGGACGTGCTAG: 0.179 z-score
GACGGTTTCGGTATCGGGATGTGCTAG: 7.78 z-score
GACGGACTGCTACTGCCGACGTGCTAG: -0.62 z-score
TTACGACTGGACACTGGGTTAGTGCTA: -0.733 z-score
TTAGGTTTCACTTTCCAAAAGTGCTAG: 9.13 z-score
GACGGTTTCCTTCTCCTGGCGTGCTAG: 10.1 z-score
TTAGATCTCAGTCCCGATTAGTGCTAG: 0.134 z-score

A few entries again (set 2):
AAGACAACUUUACAUUUAAUGCUUCACUUAAUGAGACAUUCUUUUUUUUAUAAGUCUAUUUUUCUACUCAGUUUCAGAACACUAAUCUGAUUUUCACUCUGAUUUUUAAC: 0.604
ACACCAUCCAGUAUUCAAAGCAUCCCCCGCCGUUGUGCCACUUUUGCCCACCUCUUCUGCGUGCCCCUCUUCUGUCUCAUAGUUGUGUUAAGCUUGCGUAGAAUUGCAGG: 1.24
UCUGUGGGAUUUUUAGACAUUUUUCGACAUCAGGGUAUUUGUUCCACCUUGGCCAGGCCUCCUCGGAGAAGCUUGUCCCCCGUGUGGGAGGGACGGAGCCGGACUGGACA: 0.383
UGUUUUGUACUUUUUAUACUGUUGGAUACUUAUAAUCAAAACUUUACUCUAGGGUAUUGAAUAAAUUUAGUCUUAUUAGAAAAAUAAAAGUUGUCUCAUGACUUUGUUUU: 0.589
CAGUCUUAGCUGACUUUUUUUUACUCUGAACUCUUAUUUGAAUUGUUUUUUGUGCAUAUAUUUCUGCUACCACAGAGAUUGUACUAUACAAAUAAAAAAAUAAAAACCCA: 0.779
